# Measured values collected from several papers.
# Numbered parts are unrelated; each lists some results of a single study. Changes are numbered by the printed parent chain.

# Block 1 — method: RNA Bind-n-Seq; form: RNA; sample: in vitro; tested at: not given; reference: input RNA pool; reading: higher = stronger binding
# Target: RING finger protein unkempt homolog, zinc fingers 1-6, GST-SBP tag (UNK, Homo sapiens, UniProt Q9C0B0, residues 30-357)
# Notes: RNA with constant flanks, human and mouse sites, ends assumed
# Constant ends, left off below: GGGAGUUCUACAGUCCGACGAUC … CAACAGAGGAUUGAGCAUCA
# Residues (chain): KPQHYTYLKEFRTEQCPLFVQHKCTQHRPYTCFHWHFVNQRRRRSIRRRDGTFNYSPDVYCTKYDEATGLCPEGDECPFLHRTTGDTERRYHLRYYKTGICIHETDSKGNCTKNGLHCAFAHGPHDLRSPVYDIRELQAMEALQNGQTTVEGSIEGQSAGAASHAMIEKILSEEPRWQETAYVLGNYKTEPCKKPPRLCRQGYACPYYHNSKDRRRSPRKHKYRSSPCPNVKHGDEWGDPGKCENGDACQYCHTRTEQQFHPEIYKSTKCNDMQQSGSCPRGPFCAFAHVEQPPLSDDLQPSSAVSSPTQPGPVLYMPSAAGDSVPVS
Sequence,bound/input enrichment
AGAUUCCCCCUCCUGAGACCUCCUCCGAAGUUGGAGUCUCUUACAGAUGCCUCAUCCCCUGUUAGCGUUUUAGUUUGGACCACCCAGCCUUGGACAAUUCCCGCCAACCAGGCAAUUUGC,0.903 ratio
AAGGGUACAUCUGUGUGAAGGCUGGACGAAACCCCAACUACGGUUACACGAGCUUUGACACAUUUAGCUGGGCCUUCUUAUCGCUGUUUCGACUCAUGACUCAAGACUACUGGGAGAACC,0.353 ratio
CAGCUCCAGUCCAAUACCUACGACCUCCAGGAGAGCAACGUGGGGUUGAAACUCACAAUUGUGAGCACUGUAGGCUUUGGGGAUCAGAUCAACAAGGAGGACAGCUACAAGCCCAUCGUG,0.0959 ratio
GCCCAAGCUUGUCCCUGAACCACUGUGUGCCCAUAUCCUAGAGAAGGGGAGGGAGGGAGAAUAGACAGAAUAUUUAUUACAAAUGCUAGAAAUAUAUUUAUUAUAUUAGGAAUCUCAUUU,148 ratio
AAAAGUGCUGAGGAUGCUAAAGCUAUUUAUGACUUUACAGAUACUGUGAUACGGAUCAGAAACCGACACAAUGAUGUCAUUCCCACAAUGGCCCAGGGUGUGAUUGAAUACAAGGAGAGC,0.133 ratio
UGGCAGAUCUUUAAAACUUCAGCAACCAAAGGCACUGGCCUUGAUGAGGCAAUGGAAUGGUUAGUUGAAACCCUGAAAAGCAGACAGUGAGCCCAUUCACGUCAGCGCCUGUGAGCCAAC,0.158 ratio
CUGAGAAAUAACCUCCGGAGCAUAGAGUGGGAUCUAGAGGACCUUGAUGAAACCAUCAGCAUAGUUGAAGCAAAUCCUAGAAAAUUUAACCUUGAUGCAACUGAAUUGAGUAUAAGAAAA,6.71 ratio
ACACCAGUUGGGGGACAGAGAACUGCUUCUAGGAAGAACACCAGAUGAAGAGGAUGAAGCCAUCUGGAGAGUAAAUGGCCACCACCACUCCCCCAGAGACAAAGUCAGCAGCGUGGUGGA,1.31 ratio
CCUGACAGUAUGCUGGCGCACAUGUUCAAGGACAAAGGUGUCUGGGGAAAUAAGCAAGAUCAUAGAGGAGCAUUCUUAAUUGACCGAAGUCCUGAGUACUUUGAACCUAUUUUGAACUAC,0.267 ratio
UUGUCCCACGAGGAGCACCCCCACAGCCACCCUCUCUAUGGACAUGGCGUAUGCAAGUGGCCAGGCUGUGAGGCGGUUUGUGACGACUUCCCAGCCUUUCUAAAACAUCUCAACAGUGAG,0.0662 ratio
UCAUUGUACUGCAAAAAUCAUCCUCGUUUUAAAUUAGCCACAGUGAUAACUAGUCUGCACUAGUAGAAUCAUUUACCUUUUAAAUUAUCUGCUUUGUCUGAUACCUGAAACACAUCAAAA,5.95 ratio

# Block 2 — target: CCNE2, cyclin fold, Cln2 fusion (human); method: yeast growth competition, sequencing; sample: yeast; notes: weak parent motif; reference: not given; reading: higher = stronger binding
# Parent: ITGB3BP docking peptide (human); MPVKRSLKLDGLL
Change,normalised enrichment score
K8A,1.08
L9A,0.35
L9F,1.17
L12A,0.358
K4A,0.568
L7A,0.773
V3A,0.937

# Block 3 — method: RNAcompete; form: RNA; sample: in vitro; tested at: 20 nM; notes: 7-mer, probes averaged, single round; reference: mean of 7-mers; reading: higher = stronger binding
# Target: PABPC1L2, full length, GST fusion (mouse, UniProt A0ABA7IW68)
# Target sequence (chain): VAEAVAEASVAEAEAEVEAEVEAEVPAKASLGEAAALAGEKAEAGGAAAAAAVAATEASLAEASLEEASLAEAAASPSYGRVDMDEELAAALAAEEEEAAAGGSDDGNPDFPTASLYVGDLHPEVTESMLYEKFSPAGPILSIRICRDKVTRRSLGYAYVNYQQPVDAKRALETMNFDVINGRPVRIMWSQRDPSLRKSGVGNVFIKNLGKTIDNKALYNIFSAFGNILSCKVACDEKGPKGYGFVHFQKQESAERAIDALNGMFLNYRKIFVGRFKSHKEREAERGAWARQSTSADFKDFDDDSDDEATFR
Sequence,7-mer Z-score
GUGGGAA,0.334
UUAGCUA,-0.146
UCCGUCG,-0.335
GGGUCCG,0.115
UCACACA,-0.173
UAGACGA,0.0587
UCCCCGU,-0.518
UUCGCAG,-0.269
AGCCAUC,-0.224
ACACAGU,-0.126
UAGGAUG,0.0587
AAGACAA,0.666
ACGCUCG,-0.318
AGGGGCU,0.45
CAGUUAG,-0.148
GCCUAAA,0.418
CGCGAAU,-0.137
AUCACUA,-0.0899
UCAAUGC,-0.32
CGCAACA,0.00979
AAAAUUC,4.17
UAGCCGC,-0.248

# Block 4 — method: protein binding microarray; form: double-stranded DNA, one strand shown; sample: in vitro; tested at: not given; reference: not given; reading: higher = stronger binding
# Target: Histone acetyltransferase KAT6A, winged helix 1, GST fusion (KAT6A, Homo sapiens, UniProt Q92794, residues 1-85)
# Notes: 8-mer, flanks averaged, mean of 2 arrays, mostly near background
# Construct (chain): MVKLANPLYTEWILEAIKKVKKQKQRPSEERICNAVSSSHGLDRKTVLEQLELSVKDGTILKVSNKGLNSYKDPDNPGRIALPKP
Sequence,E-score
ACCCGCGT,0.358
AAACTTGC,0.0226
CACAGGAA,-0.212
ATGTTACG,0.0561
CCCGACGC,0.459
GCCAATGA,-0.264
GGCCAGGA,-0.0338
CTTGTTGC,-0.109
AATACCCC,0.0889
GCTACGGA,0.234
CCTAGCCG,0.325
ATTTCTGA,-0.19
CAGTCTGA,-0.131
CTACCTGC,0.118
AGATAAAA,-0.0528
AAGGAGGT,-0.136
AACGCGCA,0.299
AAGCGGTG,0.0883
AGCGAGCG,0.192
GAGTGAAA,-0.209
CATGGCAC,0.0634
CCATGTAC,-0.107
AATCGTCG,0.018
CTAGTTCC,-0.025
ATGTGTCA,-0.217

# Block 5 — method: universal PBM; form: double-stranded DNA, one strand shown; sample: in vitro; tested at: 600 nM; reading: higher = stronger binding
# Target: Sal-like protein 4, full length isoform A (SALL4, Homo sapiens, UniProt Q9UJQ4, residues 1-1053)
# UniProt Q9UJQ4, sequence (whole entry, looked up): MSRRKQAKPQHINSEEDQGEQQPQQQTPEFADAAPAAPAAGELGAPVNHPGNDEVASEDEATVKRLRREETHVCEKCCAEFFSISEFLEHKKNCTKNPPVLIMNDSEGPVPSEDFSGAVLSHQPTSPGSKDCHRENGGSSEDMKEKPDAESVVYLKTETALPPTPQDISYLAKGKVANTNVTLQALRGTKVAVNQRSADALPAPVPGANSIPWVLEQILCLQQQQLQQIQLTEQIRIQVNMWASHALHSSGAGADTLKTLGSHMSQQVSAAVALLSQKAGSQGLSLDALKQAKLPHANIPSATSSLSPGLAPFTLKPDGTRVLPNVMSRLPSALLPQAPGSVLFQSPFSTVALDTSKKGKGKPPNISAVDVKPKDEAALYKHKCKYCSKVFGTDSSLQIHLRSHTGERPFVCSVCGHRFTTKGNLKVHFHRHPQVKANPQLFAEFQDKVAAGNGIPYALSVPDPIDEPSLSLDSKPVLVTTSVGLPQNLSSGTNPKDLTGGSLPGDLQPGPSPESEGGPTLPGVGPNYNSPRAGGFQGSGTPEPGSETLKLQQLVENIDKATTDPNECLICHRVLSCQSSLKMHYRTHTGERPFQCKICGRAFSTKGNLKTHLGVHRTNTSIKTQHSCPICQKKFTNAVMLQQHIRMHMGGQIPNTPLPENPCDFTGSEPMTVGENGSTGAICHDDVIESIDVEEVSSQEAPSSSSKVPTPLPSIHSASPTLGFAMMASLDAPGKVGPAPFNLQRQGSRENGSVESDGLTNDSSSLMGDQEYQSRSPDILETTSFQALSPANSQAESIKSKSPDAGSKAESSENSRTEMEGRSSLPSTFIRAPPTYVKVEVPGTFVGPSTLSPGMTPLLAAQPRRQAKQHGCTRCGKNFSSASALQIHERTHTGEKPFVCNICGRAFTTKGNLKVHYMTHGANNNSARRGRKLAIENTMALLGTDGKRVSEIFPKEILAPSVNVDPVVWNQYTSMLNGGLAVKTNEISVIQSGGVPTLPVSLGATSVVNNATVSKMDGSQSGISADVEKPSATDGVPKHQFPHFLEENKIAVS
# Notes: 8-mer, flanks averaged, mean of replicates
Sequence,E-score
CTTATGAC,0.251
AGATCCTA,-0.0589
CGCAAGTC,-0.237
ACGAGATG,-0.0974
AATTATAC,0.32
CTTTTACC,0.0118
GCTTACTA,0.124
GGTCTGAC,-0.22
ACAAACGG,-0.0173
AGAAAAGC,-0.027
ATATTCTC,0.303
AGCCATGA,-0.0141
ATGTGCTG,0.0646
ATCGCCGA,-0.0982
CGATGTAG,-0.0128
CCACAGTA,0.0424
ATACGGTC,-0.0366
CCCGCACC,-0.337
ACGGGTCT,-0.306
CCCAATGC,-0.181
CATGTCAG,-0.0581
CCGTTTCA,-0.00656
AACGGTGG,-0.101

# Block 6 — method: aptamer microarray, sandwich; form: DNA with 2'F-ANA; sample: in vitro; tested at: 200 nM; added: Cy3 exosite-II aptamer, 400 nM; reading: higher = stronger binding; sequence: GGTTGGTGTGGTTGG
# Target: Prothrombin, mature alpha-thrombin (F2, Homo sapiens, UniProt P00734)
# Notes: whole 15-mer aptamer, many near background
Modification,mean fluorescence intensity [a.u.]
2'F-ANA at 1 2 4 5 8 11,50.5
2'F-ANA at 2 4 5 7 10 11 13 14 15,46.9
2'F-ANA at 6 10 11 12 13,176
2'F-ANA at 1 5 7 8 10 11 13 14,46.4
2'F-ANA at 2 3 4 6 10 14 15,154
2'F-ANA at 1 3 4 7 8 10 11 13 14 15,51.1
2'F-ANA at 1 2 5 7 8 9 10 13,170
2'F-ANA at 1 2 3 4 5 7 11 14 15,67.9
2'F-ANA at 3 6 8 9 10 11 15,403
2'F-ANA at 2 3 4 5 6 7 10 11 12 15,56.1
2'F-ANA at 1 3 15,374
2'F-ANA at 2 3 4 5 7 11 14,49
2'F-ANA at 5 6 7 8 11 12 13,114
2'F-ANA at 1 4 5 6 9 10 11 13,46.6
2'F-ANA at 2 4 6 8 11 12 14 15,181
2'F-ANA at 2 3 4 5 6 8 10 11 12,56.1
2'F-ANA at 1 2 3 6 7 9 10 13,61.6
2'F-ANA at 1 6 7 9 11 12 14,56.5
2'F-ANA at 4 5 9 11 12 13 14,62.7
2'F-ANA at 5 6 7 8 13,87.5
2'F-ANA at 2 3 4 6 7 8 13 14,259
2'F-ANA at 1 2 5 7 9 12 13 14,61.9

# Excerpt of the above (block 5):
Sequence,E-score
CTTATGAC,0.251
AGATCCTA,-0.0589
CGCAAGTC,-0.237
ACGAGATG,-0.0974
AATTATAC,0.32
CTTTTACC,0.0118
GCTTACTA,0.124
GGTCTGAC,-0.22
ACAAACGG,-0.0173
AGAAAAGC,-0.027
ATATTCTC,0.303
AGCCATGA,-0.0141
ATGTGCTG,0.0646
ATCGCCGA,-0.0982
CGATGTAG,-0.0128
CCACAGTA,0.0424
ATACGGTC,-0.0366
